Measured values gathered from unrelated publications.
Protocols differ between the studies behind these lines. ± gives the spread as reported.

SMILES	assay	system	setting	scale	endpoint	result
Cc1cc2c(cc1O)C=C1C=CC(=O)C(C)(C)[C@H]1CC2	–	C57BL/6J mouse DSS colitis	oral gavage, 50 and 100 mg/kg daily, preventive	–	disease activity index	decreased
COc1ccc(C2CC(c3ccc(C)cc3)=Nc3ccccc3S2)cc1 (stereo not drawn)	–	Wistar rat, STZ-induced diabetes	oral, 10 mg/kg once daily, day 21	–	body weight	180 ± 4.76 g
CCCCCCOC(=O)Cc1c(C)n(C(=O)c2ccc(Cl)cc2)c2ccc(OC)cc12	hot plate test	BALB/c mice	100 mg/kg, 60 min	–	latency of nociceptive response	16.4 ± 0.66 s
NS(=O)(=O)NCCc1ccccc1F	6 Hz seizures	mouse	intraperitoneal	–	ED50	50 mg/kg
CC(C)n1cnc(C[C@H](NC(=O)c2nccnc2N)C(=O)N2CCC[C@H]2C(N)=O)c1	–	Swiss albino mice	iv, 10 µmol/kg, added: pentobarbital 50 mg/kg ip	–	sleeping time	67.6 ± 6.1 min
CC1OC(OC2C(c3c(O)cc(O)c4c(=O)cc(-c5ccc(O)cc5)oc34)OC(CO)C(O)C2O)C(O)C(O)C1O (stereo not drawn)	–	–	–	–	ABTS scavenging, TEAC	525 ± 5.82 µM TE/mM
CCCCCCCOC(=O)Cc1c(C)n(C(=O)c2ccc(Cl)cc2)c2ccc(OC)cc12	hot plate test	BALB/c mice	50 mg/kg, 60 min	–	latency of nociceptive response	15.4 ± 1.09 s
C=C1C[C@@]23CC[C@H]4[C@@](C)(CCC[C@@]4(C)C(=O)O[C@@H]4O[C@H](CO)[C@@H](O)[C@H](O)[C@H]4O)[C@@H]2CC[C@]1(O[C@@H]1O[C@H](CO[C@H]2O[C@H](CO)[C@@H](O)[C@H](O)[C@H]2O)[C@@H](O)[C@H](O)[C@H]1O[C@@H]1O[C@H](CO)[C@@H](O)[C@H](O)[C@H]1O)C3	qPCR, item: Fgf21	C57BL/6N mice, high-fat diet, brown adipose tissue	drinking water, 0.2 g/L, 16 weeks	–	mRNA level	increased
C[C@H](NC(=O)COC(=O)[C@H](C)NC(=O)CO)C(=O)O	–	water	pH 8, 37 °C	–	depolymerization rate constant	31.1 h⁻¹
C[C@H]1CN(C(=O)c2cn(-c3ccnc(N)n3)c3cc(C#CC4(O)CCCCC4)ccc23)CCN1	–	A549, mouse, lung metastasis model	dose not given	–	inhibition of lung metastasis	> 80%
C=C(c1cc(F)c(C(=O)O)c(F)c1)c1cc2c(cc1C)C(C)(C)CCC2(C)C	RNA sequencing, item: Alb mRNA	rat, brain	dose not given, 24 h, single dose	baseline: vehicle	log2 fold change	-2.9
CC(C)CN(CC(C)C)C(=O)/C=C/C=C/c1ccc2c(c1)OCO2	–	C57BL/6N mice	ip, 10 mg/kg, 30 min before PTZ, added: PTZ iv infusion	–	PTZ seizure threshold	47.6 ± 3.4 mg/kg PTZ
COc1c2c(cc3oc(COC4OC(CO)C(O)C(O)C4O)cc(=O)c13)OC(C(C)(C)O)C2 (stereo not drawn)	rectal temperature	rat, 2,4-dinitrophenol-induced pyrexia	oral, dose not given	–	onset of antipyretic effect	2 h
C=CC(=O)N1C[C@H](C)N(c2nc(OC[C@@]34CCCN3C[C@H](F)C4)nc3c(F)c(-c4ccc(F)c5sc(N)c(C#N)c45)c(C(F)(F)F)cc23)C[C@H]1C	item: pERK	mouse, MIA PaCa-2 xenograft tumour	–	–	IC50	0.061 µM
Cc1nc(C)c(C=[N+]([O-])C(C)(C)C)nc1C	Western blot, item: PGC-1α	mouse, MPTP model, substantia nigra cytosol	30 mg/kg	–	protein level increase	50.1%
COc1ccc(C2CC(c3ccc(C)cc3)=Nc3ccccc3S2)cc1OC (stereo not drawn)	–	Wistar rat, STZ-induced diabetes	oral, 10 mg/kg once daily, day 7	–	body weight	185 ± 4.39 g
C[N+](C)(CI)CC(=O)O	–	human platelet-rich plasma	20 µM, added: ADP 2 µM	–	platelet aggregation	no effect
CC(=O)C12NC(C)(C)CC1(C)C(=O)C1=C2c2c(c3c4n2C(C)(C)CC2=C4C4(CC(C)(C)NC(C)(C4)C2=O)CC3(C)C)C(=O)C(C)(C)N1 (single isomer, unassigned; (+))	acetic acid-induced writhing	mouse	intraperitoneal, 0.2 mg/kg, 0.5 h, writhes counted over 30 min	–	inhibition	61.5 ± 2.4%
Cc1ccc(S(=O)(=O)N(CCc2nnc(S)n2N)c2ccc(Cl)cc2)cc1	seizure	maximal electroshock model	200 mg/kg	–	protection	33%
COC(=O)[C@H](CSSC(C)(C)[C@H](NC(=O)[C@H](CCC(=O)NC[C@H](O)[C@@H](O)[C@H](O)[C@H](O)CO)NC(=O)[C@H](CCC(=O)O)NC(=O)[C@H](CCC(=O)NC[C@H](O)[C@@H](O)[C@H](O)[C@H](O)CO)NC(=O)[C@H](CCC(=O)O)NC(=O)[C@H](CCC(=O)NC[C@H](O)[C@@H](O)[C@H](O)[C@H](O)CO)NC(=O)CC[C@H](NC(=O)c1ccc(NCc2cnc3nc(N)[nH]c(=O)c3n2)cc1)C(=O)O)C(=O)O)NC(=O)CC[C@H](NC(=O)c1ccc(NCc2cnc3nc(N)nc(N)c3n2)cc1)C(=O)O	item: bone resorption	Lewis rat, adjuvant-induced arthritis	500 nmol/kg twice weekly × 2	direction not given	histological score decrease	93%

SMILES	assay	system	setting	scale	endpoint	result
Cc1c(C(=O)Nc2ccn(C)n2)ncn1Cc1cccc(C(F)(F)F)c1	qPCR	human αS transgenic mouse, cortex	dose not given, 120 days	baseline: placebo	SNCA mRNA level	no effect
CN(C)C(=O)c1ccnc(N2Cc3cn(Cc4ccc(F)cc4F)nc3C2)n1	item: SMI32	cuprizone-fed mice, corpus callosum	dose not given	–	neurofilament-H intensity	no effect
CC(=O)[O-].O.O.O.O.[Mn+2].[O-]c1ccc(Br)cc1C=NCCN1CCOCC1	superoxide scavenging	–	240 µM	–	inhibition	53.8%
O=C(Nc1nc2cc(C(F)(F)F)cc(NC3CC3)n2n1)c1cccnc1	–	mouse, MOG-induced EAE	oral gavage, 30 mg/kg once daily	baseline: vehicle	disease incidence	no effect
CN1Cc2c(Cl)cc(Cl)cc2C(c2ccc(S(=O)(=O)NCCOCCOCCOCCNC(=O)C(O)C(O)C(=O)NCCOCCOCCOCCNS(=O)(=O)c3ccc(C4CN(C)Cc5c(Cl)cc(Cl)cc54)cc3)cc2)C1 (stereo not drawn)	–	Sprague Dawley rats	oral, 3 mg/kg, 16 h	higher = more watery	stool form score	3
Cc1cc(=O)[nH]c2ccc(OCCCC(=O)N3CCCCC3)cc12	–	rat, isolated spontaneously beating atria	100 µM	baseline: baseline	contraction rate increase	43 ± 11%
CC/C=C\C/C=C\C/C=C\C/C=C\C/C=C\CCCCOC(CC)C(=O)O (stereo not drawn)	–	APOE*3Leiden.CETP mice, high-fat/cholesterol diet	dose not given, 20 weeks	baseline: control	hepatic GSSG	decreased
C=C(c1ccc(C(=O)O)c(F)c1)c1cc2c(cc1C)C(C)(C)C=CC2(C)C	RNA sequencing, item: Arl11 mRNA	rat, brain	dose not given, 24 h, single dose	baseline: vehicle	log2 fold change	-0.76
CC(C)c1cnc(-c2cc(Cl)ccc2F)cc1Nc1ccncc1C(=O)NC(CO)CO	SMAD2 phosphorylation	mouse, 4T1 tumour, tumour	30 mg/kg twice daily then once, 24 h period, steady state	–	inhibition	42%
O=C(O)[C@H]1O[C@@H](Oc2c(-c3ccc(O)c(O)c3)oc3cc(O)cc(O)c3c2=O)[C@H](O)[C@@H](O)[C@@H]1O	–	–	100 µg/mL	–	ABTS radical scavenging	78 ± 2.8%
Cc1cc2c(cc1C1(c3ncc(C(=O)O)cn3)CC1)C(C)(C)CCC2(C)C	RNA sequencing, item: Cyp26b1 mRNA	rat, brain	dose not given, 24 h, single dose	baseline: vehicle	log2 fold change	-0.07
CC[C@H](C)[C@@H]1NC(=O)[C@H](Cc2ccc(O)cc2)NC(=O)[C@@H](N)CSSC[C@@H](C(=O)NCC(=O)N[C@@H](CCCCNC(=O)COCCOCCNC(=O)COCCOCCNC(=O)CC[C@H](NC(=O)CC[C@H](NC(=O)CCCCCCCCCCCCCCCCC(=O)O)C(=O)O)C(=O)O)C(=O)NCC(N)=O)NC(=O)[C@H](CC(N)=O)NC(=O)[C@H](CCC(N)=O)NC1=O	RT-PCR	C57BL/6 mice, diet-induced obese, liver	subcutaneous, dose not given, 14 days	–	FGF21 mRNA level	increased
CCCn1cnc(C[C@H](NC(=O)c2nccnc2N)C(=O)N2CCC[C@H]2C(N)=O)c1	–	Swiss albino mice	iv, 10 µmol/kg, added: pentobarbital 50 mg/kg ip	–	sleeping time	85.1 ± 5.5 min
Cc1cc(O)c(C=O)c2c1C(=O)Oc1c(CO)c(O)c3c(c1O2)C(O)OC3=O (stereo not drawn)	–	streptozotocin diabetic male rats	10 mg/kg, 0 weeks	–	body weight	193 ± 5.43 g
Cn1cnnc1Sc1c2c(c(C#N)c3nc4ccccc4n13)CCCC2	flow chamber on collagen	mouse blood	5 µM, shear 50 dyne/cm2	–	platelet thrombus coverage and volume	decreased
CSCC[C@@H]1NC(=O)[C@H](CCCCN)NC(=O)[C@H]([C@@H](C)O)NC(=O)[C@H](CCCCN)NC(=O)[C@H](CC(C)C)NC(=O)[C@H](CCCCN)NC(=O)[C@H](CCCNC(=N)N)NC(=O)[C@@H]2CSSC[C@@H]3NC(=O)[C@@H]4CCCN4C(=O)[C@H](C(C)C)NC(=O)[C@H](CCC(N)=O)NC(=O)[C@H](CCC(N)=O)NC(=O)CNC(=O)[C@H](CC(C)C)NC(=O)[C@@H]4CSSC[C@H](NC(=O)[C@H]([C@@H](C)O)NC(=O)[C@H](C)NC(=O)[C@H](CSSC[C@@H](C(=O)N[C@@H](CO)C(=O)N[C@@H](CCCNC(=N)N)C(=O)N[C@H](C(N)=O)[C@@H](C)O)NC(=O)[C@@H]5CCCN5C(=O)[C@H](CC(N)=O)NC1=O)NC(=O)[C@@H]1CCCN1C(=O)[C@H](CC(=O)O)NC(=O)[C@H](CSSC[C@H](NC(=O)[C@H](CCCNC(=N)N)NC(=O)[C@H](CCCNC(=N)N)NC(=O)[C@H](CO)NC(=O)[C@@H](N)CO)C(=O)N[C@@H](C(C)C)C(=O)N[C@@H](CCCNC(=N)N)C(=O)N[C@@H](CC(C)C)C(=O)N[C@@H](Cc1c[nH]cn1)C(=O)N[C@@H](CCC(=O)O)C(=O)N[C@@H](CO)C(=O)N4)NC3=O)C(=O)N[C@@H](Cc1ccc(O)cc1)C(=O)N[C@H]1CSSC[C@H](NC(=O)[C@H](Cc3ccccc3)NC(=O)[C@H](C)NC(=O)[C@H](CC(N)=O)NC(=O)[C@H](Cc3ccccc3)NC(=O)[C@H](Cc3ccccc3)NC(=O)[C@H](CCCNC(=N)N)NC1=O)C(=O)N[C@@H](Cc1ccc(O)cc1)C(=O)N2	–	Long-Evans rat, male	intracerebroventricular, 1.0 nmol, 5 days	–	body weight change	25.2 ± 3.5 g
O=c1c(-c2ccccc2)c[nH]n1-c1ccccn1	–	mouse	dose not given	–	hematocrit and reticulocytes	inactive
O=C(O)c1ccc(-c2coc3ncc(-c4ccccc4)cc23)cc1Cl	[3H]-2-deoxyglucose uptake	mouse EDL muscle ex vivo	concentration not given, added: muscle contraction	–	glucose uptake	inhibited
CC12CC(O)C3CC1(OC1OC(CO)C(O)C(O)C1O)C3(COC(=O)c1ccccc1)C(=O)O2 (stereo not drawn)	–	mice, reserpine-induced depression	14 mg/kg, 7 days, within 15 s	–	out-circle rate	70%

Excerpt of the above:
SMILES	assay	system	setting	scale	endpoint	result
CC(C)n1cnc(C[C@H](NC(=O)c2nccnc2N)C(=O)N2CCC[C@H]2C(N)=O)c1	–	Swiss albino mice	iv, 10 µmol/kg, added: pentobarbital 50 mg/kg ip	–	sleeping time	67.6 ± 6.1 min
CC(=O)C12NC(C)(C)CC1(C)C(=O)C1=C2c2c(c3c4n2C(C)(C)CC2=C4C4(CC(C)(C)NC(C)(C4)C2=O)CC3(C)C)C(=O)C(C)(C)N1 (single isomer, unassigned; (+))	acetic acid-induced writhing	mouse	intraperitoneal, 0.2 mg/kg, 0.5 h, writhes counted over 30 min	–	inhibition	61.5 ± 2.4%
